Assay results pooled from the literature.
Protocols differ between the studies behind these lines. Numbers after ± are the reported error.
B1: Pigr 19-135 (Mus musculus, UniProt O70570); chain KSPIFGPQEVSSIEGDSVSITCYYPDTSVNRHTRKYWCRQGASGMCTTLISSNGYLSKEYSGRANLINFPENNTFVINIEQLTQDDTGSYKCGLGTSNRGLSFDVSLEVSQVPELPS
B2: BTN2A2 287-523 M506T (Homo sapiens, UniProt Q8WVV5); sequence looked up; chain KKLQREKKILSGEKKVEQEEKEIAQQLQEELRWRRTFLHAADVVLDPDTAHPELFLSEDRRSVRRGPYRQRVPDNPERFDSQPCVLGWESFASGKHYWEVEVENVMVWTVGVCRHSVERKGEVLLIPQNGFWTLEMFGNQYRALSSPERILPLKESLCRVGVFLDYEAGDVSFYNMRDRSHIYTCPRSAFTVPVRPFFRLGSDDSPIFICPALTGASGVTVPEEGLKLHRVGTHQSL
B3: IL18 37-193 C74S/C104S/C163S/L174C (Homo sapiens, UniProt Q14116); chain YFGKLESKLSVIRNLNDQVLFIDQGNRPLFEDMTDSDSRDNAPRTIFIISMYKDSQPRGMAVTISVKSEKISTLSCENKIISFKEMNPPDNIKDTKSDIIFFQRSVPGHDNKMQFESSSYEGYFLASEKERDLFKLICKKEDELGDRSIMFTVQNED
B4: ACVR1 21-123 (Homo sapiens, UniProt Q04771); sequence looked up; chain MEDEKPKVNPKLYMCVCEGLSCGNEDHCEGQQCFSSLSINDGFHVYQKGCFQVYEQGKMTCKTPPSPGQAVECCQGDWCNRNITAQLPTKGKSFPGTQNFHLE
B5: lptC 24-191 (Escherichia coli, UniProt P0ADV9); sequence looked up; chain MAEKDDTAQVVVNNNDPTYKSEHTDTLVYNPEGALSYRLIAQHVEYYSDQAVSWFTQPVLTTFDKDKIPTWSVKADKAKLTNDRMLYLYGHVEVNALVPDSQLRRITTDNAQINLVTQDVTSEDLVTLYGTTFNSSGLKMRGNLRSKNAELIEKVRTSYEIQNKQTQP
B6: NOTCH1 237-549 (Homo sapiens, UniProt P46531); sequence looked up; chain GDVTHECACLPGFTGQNCEENIDDCPGNNCKNGGACVDGVNTYNCRCPPEWTGQYCTEDVDECQLMPNACQNGGTCHNTHGGYNCVCVNGWTGEDCSENIDDCASAACFHGATCHDRVASFYCECPHGRTGLLCHLNDACISNPCNEGSNCDTNPVNGKAICTCPSGYTGPACSQDVDECSLGANPCEHAGKCINTLGSFECQCLQGYTGPRCEIDVNECVSNPCQNDATCLDQIGEFQCICMPGYEGVHCEVNTDECASSPCLHNGRCLDKINEFQCECPTGFTGHLCQYDVDECASTPCKNGAKCLDGPNT
B7: Cacna1c 1647-1777 (Mus musculus, UniProt Q01815); sequence looked up; chain NALSLQAGLRTLHDIGPEIRRAISGDLTAEEELDKAMKEAVSAASEDDIFRRAGGLFGNHVTYYQSDSRGNFPQTFATQRPLHINKTGNNQADTESPSHEKLVDSTFTPSSYSSTGSNANINNANNTALGR
Sequence of UniProt Q23985 (whole entry, looked up): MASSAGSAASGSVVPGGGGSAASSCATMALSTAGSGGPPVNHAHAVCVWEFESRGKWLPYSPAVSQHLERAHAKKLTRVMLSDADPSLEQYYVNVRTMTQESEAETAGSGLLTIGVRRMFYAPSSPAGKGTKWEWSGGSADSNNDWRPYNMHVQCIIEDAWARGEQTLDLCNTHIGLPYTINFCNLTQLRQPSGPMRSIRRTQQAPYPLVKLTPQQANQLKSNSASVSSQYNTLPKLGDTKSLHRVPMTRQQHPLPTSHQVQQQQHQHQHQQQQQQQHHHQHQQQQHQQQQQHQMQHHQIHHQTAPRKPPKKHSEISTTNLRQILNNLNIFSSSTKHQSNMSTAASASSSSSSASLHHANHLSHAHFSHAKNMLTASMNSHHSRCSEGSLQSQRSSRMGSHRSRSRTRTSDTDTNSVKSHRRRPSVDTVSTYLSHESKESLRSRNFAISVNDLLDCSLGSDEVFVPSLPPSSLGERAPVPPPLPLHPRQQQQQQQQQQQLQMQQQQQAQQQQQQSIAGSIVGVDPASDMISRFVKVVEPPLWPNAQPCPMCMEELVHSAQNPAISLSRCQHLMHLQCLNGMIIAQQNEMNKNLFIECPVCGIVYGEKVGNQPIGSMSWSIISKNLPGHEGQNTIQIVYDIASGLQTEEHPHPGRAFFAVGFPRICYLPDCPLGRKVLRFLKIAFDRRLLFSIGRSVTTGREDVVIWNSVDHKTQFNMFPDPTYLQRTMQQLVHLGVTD
Sequence of UniProt P08253 (whole entry, looked up): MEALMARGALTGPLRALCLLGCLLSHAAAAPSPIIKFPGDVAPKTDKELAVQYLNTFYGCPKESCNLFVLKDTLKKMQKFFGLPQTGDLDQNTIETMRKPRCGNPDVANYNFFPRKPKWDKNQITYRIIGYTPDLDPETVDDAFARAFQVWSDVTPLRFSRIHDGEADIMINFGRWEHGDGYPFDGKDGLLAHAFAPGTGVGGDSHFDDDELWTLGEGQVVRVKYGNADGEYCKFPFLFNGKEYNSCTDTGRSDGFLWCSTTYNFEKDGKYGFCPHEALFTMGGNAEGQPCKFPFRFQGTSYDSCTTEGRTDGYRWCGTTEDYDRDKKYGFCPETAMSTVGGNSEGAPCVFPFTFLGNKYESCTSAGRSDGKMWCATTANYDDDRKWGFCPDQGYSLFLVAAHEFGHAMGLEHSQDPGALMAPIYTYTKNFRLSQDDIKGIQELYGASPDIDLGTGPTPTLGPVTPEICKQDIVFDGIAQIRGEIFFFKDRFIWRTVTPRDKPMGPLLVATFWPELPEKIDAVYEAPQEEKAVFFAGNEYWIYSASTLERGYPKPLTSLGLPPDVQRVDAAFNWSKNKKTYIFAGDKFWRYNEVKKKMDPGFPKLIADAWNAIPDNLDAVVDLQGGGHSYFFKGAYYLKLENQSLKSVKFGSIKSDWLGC
Sequence of UniProt Q9ZU93 (whole entry, looked up): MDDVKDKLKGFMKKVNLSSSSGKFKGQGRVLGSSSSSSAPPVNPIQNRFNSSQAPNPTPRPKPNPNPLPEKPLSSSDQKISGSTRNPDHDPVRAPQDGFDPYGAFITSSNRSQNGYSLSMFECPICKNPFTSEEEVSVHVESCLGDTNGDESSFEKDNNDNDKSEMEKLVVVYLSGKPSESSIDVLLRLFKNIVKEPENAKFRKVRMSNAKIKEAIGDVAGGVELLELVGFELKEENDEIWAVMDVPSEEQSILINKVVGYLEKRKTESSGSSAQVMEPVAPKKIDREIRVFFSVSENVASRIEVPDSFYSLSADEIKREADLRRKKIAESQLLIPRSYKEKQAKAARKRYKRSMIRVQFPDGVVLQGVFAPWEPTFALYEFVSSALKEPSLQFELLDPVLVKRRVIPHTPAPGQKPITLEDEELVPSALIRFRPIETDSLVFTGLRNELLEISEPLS
Sequence of UniProt P0A9V1 (whole entry, unmodified, looked up): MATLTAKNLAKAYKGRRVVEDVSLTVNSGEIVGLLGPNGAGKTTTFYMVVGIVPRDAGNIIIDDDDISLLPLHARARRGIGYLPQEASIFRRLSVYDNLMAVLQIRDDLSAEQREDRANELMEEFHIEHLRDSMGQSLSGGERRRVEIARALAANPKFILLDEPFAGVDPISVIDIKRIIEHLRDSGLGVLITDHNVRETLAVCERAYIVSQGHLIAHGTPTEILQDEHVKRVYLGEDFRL
Sequence of UniProt Q9NR61 (whole entry, unmodified, looked up): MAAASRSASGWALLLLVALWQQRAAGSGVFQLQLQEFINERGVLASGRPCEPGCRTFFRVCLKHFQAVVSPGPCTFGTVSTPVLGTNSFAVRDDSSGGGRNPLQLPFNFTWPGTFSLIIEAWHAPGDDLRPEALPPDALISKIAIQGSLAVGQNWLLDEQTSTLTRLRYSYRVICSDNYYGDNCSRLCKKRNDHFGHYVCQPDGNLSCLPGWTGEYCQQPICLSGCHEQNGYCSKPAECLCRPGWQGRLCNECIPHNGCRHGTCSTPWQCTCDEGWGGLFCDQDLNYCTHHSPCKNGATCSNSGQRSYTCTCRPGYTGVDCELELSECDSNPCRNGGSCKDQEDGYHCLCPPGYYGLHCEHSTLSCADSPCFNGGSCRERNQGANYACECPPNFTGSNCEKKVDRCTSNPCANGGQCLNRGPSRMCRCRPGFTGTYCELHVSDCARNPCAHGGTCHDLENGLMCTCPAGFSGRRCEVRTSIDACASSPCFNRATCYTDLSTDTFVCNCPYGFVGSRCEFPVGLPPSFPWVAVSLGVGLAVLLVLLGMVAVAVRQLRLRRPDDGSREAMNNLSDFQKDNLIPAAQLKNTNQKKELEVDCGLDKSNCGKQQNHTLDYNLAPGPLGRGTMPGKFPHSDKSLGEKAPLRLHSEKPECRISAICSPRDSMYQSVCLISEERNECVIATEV
Sequence of UniProt Q9NWS0 (whole entry, looked up): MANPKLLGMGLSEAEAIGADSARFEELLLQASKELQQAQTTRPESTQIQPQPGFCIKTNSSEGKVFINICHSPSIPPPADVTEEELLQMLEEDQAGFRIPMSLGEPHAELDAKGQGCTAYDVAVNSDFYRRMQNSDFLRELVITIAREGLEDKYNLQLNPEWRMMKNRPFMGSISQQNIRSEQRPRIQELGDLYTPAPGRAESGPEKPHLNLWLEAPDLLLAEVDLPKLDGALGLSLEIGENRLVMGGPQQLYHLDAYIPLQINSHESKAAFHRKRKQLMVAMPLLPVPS
Sequence of UniProt Q8NBP7 (whole entry, looked up): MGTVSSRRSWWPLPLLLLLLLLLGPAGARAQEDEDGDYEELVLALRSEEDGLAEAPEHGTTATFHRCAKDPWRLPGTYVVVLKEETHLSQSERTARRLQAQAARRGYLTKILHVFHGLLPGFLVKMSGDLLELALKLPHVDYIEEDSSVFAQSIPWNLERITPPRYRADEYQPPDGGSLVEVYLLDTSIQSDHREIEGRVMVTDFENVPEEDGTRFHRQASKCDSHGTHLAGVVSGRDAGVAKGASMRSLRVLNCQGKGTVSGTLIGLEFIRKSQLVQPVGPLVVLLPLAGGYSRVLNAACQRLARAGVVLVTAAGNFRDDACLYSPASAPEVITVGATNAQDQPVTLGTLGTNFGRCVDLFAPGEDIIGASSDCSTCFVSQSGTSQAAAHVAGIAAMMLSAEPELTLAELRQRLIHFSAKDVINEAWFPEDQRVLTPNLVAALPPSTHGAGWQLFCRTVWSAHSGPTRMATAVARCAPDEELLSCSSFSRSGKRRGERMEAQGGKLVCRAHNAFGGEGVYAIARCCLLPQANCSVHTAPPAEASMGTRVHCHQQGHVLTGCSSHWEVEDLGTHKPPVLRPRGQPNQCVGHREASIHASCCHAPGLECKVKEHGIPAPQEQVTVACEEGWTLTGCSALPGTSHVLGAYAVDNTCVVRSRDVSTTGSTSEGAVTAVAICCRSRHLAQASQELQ
Sequence of UniProt P22004 (whole entry, looked up): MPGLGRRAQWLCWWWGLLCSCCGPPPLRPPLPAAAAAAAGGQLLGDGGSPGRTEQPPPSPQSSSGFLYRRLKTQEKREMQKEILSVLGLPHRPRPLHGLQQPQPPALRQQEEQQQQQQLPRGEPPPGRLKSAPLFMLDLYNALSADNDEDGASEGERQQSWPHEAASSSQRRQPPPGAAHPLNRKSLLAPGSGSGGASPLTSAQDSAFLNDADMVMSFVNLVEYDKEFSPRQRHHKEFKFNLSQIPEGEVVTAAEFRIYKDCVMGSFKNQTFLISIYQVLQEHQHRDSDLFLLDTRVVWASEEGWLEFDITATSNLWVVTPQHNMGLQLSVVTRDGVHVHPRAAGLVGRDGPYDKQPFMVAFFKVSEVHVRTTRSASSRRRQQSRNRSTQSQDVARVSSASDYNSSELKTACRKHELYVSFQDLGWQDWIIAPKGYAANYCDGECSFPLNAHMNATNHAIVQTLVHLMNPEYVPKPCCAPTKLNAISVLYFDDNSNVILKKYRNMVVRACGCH

The Kd of `PARRSEELVAEAHNLCTLLENAIQDTVREQDQSFTALDWSWLQTE (IKBKB 701-745 K703R/K704R (UniProt O14920); N-terminal FITC; sequence looked up)` is reported as 4080 nM (IKBKG residues 44-113 T50E/L55R/R75V/E78R; fluorescence polarisation; peptide).
`FIYWPWADLGVPDCG (macrocyclic peptide; cyclic)` gave a Kd of greater than 10000 nM (HRAS fragment (Homo sapiens); SPR; peptide).
The Kd of `B1 (Pigr 19-135)` is reported as 1730 nM (Igha/Jchain CH2-CH3 with J chain P136A/Y135A (Mus musculus); SPR).
The Kd of `Cacna1c distal C-terminal regulatory (Rattus norvegicus)` is reported as 66000 ± 10000 nM (CACNA1C IQ motif 1644-1668 F1648E, fluorescein label (UniProt P15381); fluorescence polarisation).
`MTLRRRGEKATISIQEHMAIDVCPGPIRPIKQISDYF (Doc2b 1-37 (Mus musculus, UniProt P70169); sequence looked up)` gave a Kd of 1770 ± 160 nM (Unc13a MUN domain del1453-1531 (Rattus norvegicus); ITC).
The Kd of `APOA1 mature (Homo sapiens)` is reported as 134 nM (MMP2 359-660 (Homo sapiens, UniProt P08253); MST).
`MBL-A mature, hydroxylysine, hydroxyproline in collagen (Rattus norvegicus, UniProt P19999)` has a Kd of 130 nM (C1R fragment (Homo sapiens); SPR; together with: CaCl2 140 mM).
The Kd of `KLLMIIHDRREFAKFEKEKMNAKWDTQENPIYKSPINNFKNPNYGRKAGL (ITGB1 752-801 (Homo sapiens, UniProt P05556-5); sequence looked up)` is reported as 63000 nM (Tln2 312-408 E375D (Mus musculus, UniProt Q71LX4); NMR titration).
`PVDPDNEAYEM (SNCA residues 117-127 (Homo sapiens); N-acetyl, C-terminal amide)` has a Kd of 87000 ± 7800 nM (STIP1 TPR2A (Homo sapiens); BLI; peptide).
The Kd of `Notch ankyrin domain E226A/R227A/R107A (Drosophila)` is reported as 13000 nM (dx (Drosophila melanogaster, UniProt Q23985); AUC).
`DHEYVLTESFLDSGAFPNHDVIDHNKMLNSNYNGNGILNKGGVLGLVKEYYKKSDVGR (ATG9 940-997 (Saccharomyces cerevisiae, UniProt Q12142); sequence looked up)` gave a Kd of 760 nM (ATG23 A34E (UniProt Q06671); BLI).
`YAGSDSDLDTDDEFVPY (TELO2 483-497 (Homo sapiens); pT491)` gave a Kd of 15000 nM (PIH1D1 1-180 (Homo sapiens, UniProt Q9NWS0); ITC; peptide).
The Kd of `B2 (BTN2A2 287-523 M506T)` is reported as 31 nM (BTN3A3 272-584 R381H (Homo sapiens, UniProt O00478); ITC).
For `B3`, the Kd was 0.007 nM (IL18BP (Homo sapiens, UniProt O95998); SPR).
With `B4 (ACVR1 21-123)` the Kd was 3.95 nM (BMP6 mature (UniProt P22004); SPR; Fc fusion).
`Il2ra soluble (Mus musculus) (sequence not shown)` gave a Kd of 250 nM (Il2 (Mus musculus, UniProt P04351); SPR).
The Kd of `B5 (lptC 24-191)` is reported as 2600 ± 300 nM (LptB2FG C204A/C28S/C91T, MTSL spin label (Escherichia coli, UniProt P0A9V1); CW EPR titration; one-site fit, in nanodiscs).
For `ENAH EVH1 domain (Homo sapiens)`, the Kd was 57200 nM (CEBPB peptide (Homo sapiens); BLI).
`PCSK9 (Homo sapiens, UniProt Q8NBP7)` gave a Kd of 0.65 nM (alirocumab IgG, PBS-stressed 28 d, Asn deamidation, heavy chain CDR1 Asn30 and Fc; SPR).
`EYGIQRITC (IL1RAP 152-160 (Homo sapiens); acetylated N-terminus/C-terminal amide)` has a Kd of 57000 nM (IL1RL1/IL33 ST2 , IL-33 19-328; SPR; peptide).
`B6 (NOTCH1 237-549)` gave a Kd of 24 nM (DLL4 27-400 G28S/F107L/I143F/H194Y/L206P/N257P/T271L/F280Y/S301R/Q305P (Homo sapiens, UniProt Q9NR61); SPR).
`SAAAAGDDDDLYN (CDC48A 797-809 (Arabidopsis thaliana))` has a Kd of 17100 ± 900 nM (PUX2 157-273 (Arabidopsis thaliana, UniProt Q9ZU93); ITC; peptide; 25 °C).
For `B7 (Cacna1c 1647-1777)`, the Kd was 63600 nM (jph2 1-455 S165F (Danio rerio, UniProt A0ACM8QCS2); ITC).

For quick reference, copied from above:
With `B4 (ACVR1 21-123)` the Kd was 3.95 nM (BMP6 mature (UniProt P22004); SPR; Fc fusion).
`Il2ra soluble (Mus musculus) (sequence not shown)` gave a Kd of 250 nM (Il2 (Mus musculus, UniProt P04351); SPR).
